Results from different studies.
Protocols differ between the studies behind these lines.
Cell line: NCI-H23
Technique: SRB

CC/C=C\C/C=C\C/C=C\C/C=C\C/C=C\C/C=C\CCC(=O)Nc1ccn(C2OC(CO)C(O)C2(F)F)c(=O)n1 (stereo not shown)
GI50 (cell growth or viability): 15.7 nM

COc1cc(CNC(=O)C[C@H](C)CCC=C(C)C)ccc1OCc1cn(-c2cccc(Cl)c2)nn1
growth percent (10 µM, 48 h): 72.9%

CC(=C(c1ccc(O)cc1)c1ccc(Cl)cc1)c1ccc(Cl)cc1
GI50 (cell growth or viability): 760 nM

COc1ccc2c(c1)/C(=N\Nc1nnc3n1N=C(c1ccccc1)CS3)C(=O)N2
inhibition (cell growth or viability; 10 µM): 35%

CC(=O)OC[C@H]1O[C@@H](Sc2sc(C(=O)c3ccc(C)cc3)c(N)c2-c2nc3ccccc3s2)[C@H](OC(C)=O)[C@@H](OC(C)=O)[C@H]1OC(C)=O
growth (10 µM, 48 h; relative to: untreated): 83.7%

COc1cc(CNC(=O)C[C@H](C)CCC=C(C)C)ccc1OCc1cn(-c2ccccc2[N+](=O)[O-])nn1
growth percent (10 µM, 48 h): 62.5%

CCC(=C(c1ccc(Cl)cc1)c1ccc(OCCCN(C)C)cc1)c1ccc(OC)cc1
GI50 (cell growth or viability): 7430 nM

CC(=O)OC[C@H]1O[C@@H](Sc2sc(C(=O)c3ccc(Br)cc3)c(N)c2-c2nc3ccccc3s2)[C@H](OC(C)=O)[C@@H](OC(C)=O)[C@@H]1OC(C)=O
growth (10 µM, 48 h; relative to: untreated): 23.8%

COc1ccc(C2=Nn3c(NN=C4C(=O)N(C)c5ccc(Br)cc54)nnc3SC2)cc1
inhibition (cell growth or viability; 10 µM): 19%

COc1cc(CNC(=O)C[C@H](C)CCC=C(C)C)ccc1OCc1cn(-c2ccccc2Cl)nn1
growth percent (10 µM, 48 h): 64.5%

Excerpt of the above:
CC(=C(c1ccc(O)cc1)c1ccc(Cl)cc1)c1ccc(Cl)cc1
GI50 (cell growth or viability): 760 nM
